Results from different studies.
Parts stem from different laboratories: compare values within a part only. Several values in a cell are separate wells, animals, samples, runs or records.
Chain of UniProt P51812 (whole entry, looked up): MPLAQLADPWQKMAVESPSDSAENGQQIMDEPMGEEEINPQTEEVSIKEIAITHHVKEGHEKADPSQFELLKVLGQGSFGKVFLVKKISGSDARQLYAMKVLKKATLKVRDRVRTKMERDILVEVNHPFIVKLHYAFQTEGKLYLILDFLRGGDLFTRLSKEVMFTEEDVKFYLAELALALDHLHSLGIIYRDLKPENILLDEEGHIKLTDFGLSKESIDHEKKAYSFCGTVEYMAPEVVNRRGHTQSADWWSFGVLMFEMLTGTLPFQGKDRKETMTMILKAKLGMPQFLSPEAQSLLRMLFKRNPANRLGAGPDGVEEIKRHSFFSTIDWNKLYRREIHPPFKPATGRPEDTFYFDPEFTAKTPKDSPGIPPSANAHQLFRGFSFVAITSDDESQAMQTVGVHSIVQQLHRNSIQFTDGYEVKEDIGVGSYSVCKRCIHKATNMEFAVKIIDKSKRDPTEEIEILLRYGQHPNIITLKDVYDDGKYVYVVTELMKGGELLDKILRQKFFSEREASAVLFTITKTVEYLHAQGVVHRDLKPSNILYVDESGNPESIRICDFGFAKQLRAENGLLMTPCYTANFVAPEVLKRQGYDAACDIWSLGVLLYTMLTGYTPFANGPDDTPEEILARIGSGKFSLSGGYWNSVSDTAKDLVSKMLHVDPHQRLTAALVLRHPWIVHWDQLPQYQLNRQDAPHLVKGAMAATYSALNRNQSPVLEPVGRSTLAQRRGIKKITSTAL
Chain of UniProt P29322 (whole entry, looked up): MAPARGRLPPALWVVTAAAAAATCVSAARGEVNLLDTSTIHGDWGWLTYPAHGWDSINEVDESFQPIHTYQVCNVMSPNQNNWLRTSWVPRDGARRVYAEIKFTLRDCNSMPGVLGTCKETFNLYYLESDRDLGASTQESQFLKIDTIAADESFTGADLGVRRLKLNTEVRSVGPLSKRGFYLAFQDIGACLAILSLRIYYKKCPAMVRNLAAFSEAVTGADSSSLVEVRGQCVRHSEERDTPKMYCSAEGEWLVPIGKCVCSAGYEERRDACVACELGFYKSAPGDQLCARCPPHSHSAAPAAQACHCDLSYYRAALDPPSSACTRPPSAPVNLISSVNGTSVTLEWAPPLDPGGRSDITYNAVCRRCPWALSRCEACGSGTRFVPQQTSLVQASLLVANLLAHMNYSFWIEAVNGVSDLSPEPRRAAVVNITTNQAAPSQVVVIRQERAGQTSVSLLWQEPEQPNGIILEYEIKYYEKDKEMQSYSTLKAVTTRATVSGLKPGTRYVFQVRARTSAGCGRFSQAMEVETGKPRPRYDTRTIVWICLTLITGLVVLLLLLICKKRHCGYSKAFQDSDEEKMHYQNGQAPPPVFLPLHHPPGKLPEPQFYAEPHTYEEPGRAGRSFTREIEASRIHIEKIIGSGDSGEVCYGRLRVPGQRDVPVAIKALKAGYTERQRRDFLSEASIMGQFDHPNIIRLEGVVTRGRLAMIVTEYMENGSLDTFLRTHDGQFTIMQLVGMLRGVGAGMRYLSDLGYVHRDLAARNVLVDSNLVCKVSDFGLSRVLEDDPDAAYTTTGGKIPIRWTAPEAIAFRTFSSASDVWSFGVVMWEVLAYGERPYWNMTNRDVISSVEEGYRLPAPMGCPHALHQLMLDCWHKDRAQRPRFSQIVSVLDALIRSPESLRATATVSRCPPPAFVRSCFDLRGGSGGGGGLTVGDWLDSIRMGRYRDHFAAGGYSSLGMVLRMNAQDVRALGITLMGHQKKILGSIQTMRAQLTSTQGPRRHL
Chain of UniProt O15111 (whole entry, looked up): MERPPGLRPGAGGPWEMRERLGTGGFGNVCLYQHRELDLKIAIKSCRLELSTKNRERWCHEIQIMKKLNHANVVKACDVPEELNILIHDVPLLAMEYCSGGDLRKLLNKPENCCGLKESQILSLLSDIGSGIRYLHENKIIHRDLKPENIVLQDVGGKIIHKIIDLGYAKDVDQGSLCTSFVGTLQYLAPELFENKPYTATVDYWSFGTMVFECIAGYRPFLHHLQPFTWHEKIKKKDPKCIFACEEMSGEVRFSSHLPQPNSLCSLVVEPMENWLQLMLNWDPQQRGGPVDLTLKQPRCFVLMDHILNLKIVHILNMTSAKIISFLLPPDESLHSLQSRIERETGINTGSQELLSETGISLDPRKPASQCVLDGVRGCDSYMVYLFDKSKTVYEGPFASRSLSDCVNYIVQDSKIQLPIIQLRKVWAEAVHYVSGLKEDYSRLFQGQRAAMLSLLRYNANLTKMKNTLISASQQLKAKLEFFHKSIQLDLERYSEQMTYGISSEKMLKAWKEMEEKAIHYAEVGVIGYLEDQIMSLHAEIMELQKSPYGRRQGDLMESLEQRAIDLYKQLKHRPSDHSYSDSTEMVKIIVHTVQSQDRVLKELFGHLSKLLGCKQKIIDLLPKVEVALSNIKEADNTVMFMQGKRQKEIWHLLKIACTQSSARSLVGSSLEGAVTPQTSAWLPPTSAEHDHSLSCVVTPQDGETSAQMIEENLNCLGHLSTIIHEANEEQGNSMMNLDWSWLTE

Series 1 — effect on: enzyme activity; action: inhibitor; tested at: 77 µM; reference: untreated
Target: DNA polymerase theta, ATPase domain (POLQ, Homo sapiens, UniProt O75417)
Chain of UniProt O75417 (whole entry, unmodified, looked up): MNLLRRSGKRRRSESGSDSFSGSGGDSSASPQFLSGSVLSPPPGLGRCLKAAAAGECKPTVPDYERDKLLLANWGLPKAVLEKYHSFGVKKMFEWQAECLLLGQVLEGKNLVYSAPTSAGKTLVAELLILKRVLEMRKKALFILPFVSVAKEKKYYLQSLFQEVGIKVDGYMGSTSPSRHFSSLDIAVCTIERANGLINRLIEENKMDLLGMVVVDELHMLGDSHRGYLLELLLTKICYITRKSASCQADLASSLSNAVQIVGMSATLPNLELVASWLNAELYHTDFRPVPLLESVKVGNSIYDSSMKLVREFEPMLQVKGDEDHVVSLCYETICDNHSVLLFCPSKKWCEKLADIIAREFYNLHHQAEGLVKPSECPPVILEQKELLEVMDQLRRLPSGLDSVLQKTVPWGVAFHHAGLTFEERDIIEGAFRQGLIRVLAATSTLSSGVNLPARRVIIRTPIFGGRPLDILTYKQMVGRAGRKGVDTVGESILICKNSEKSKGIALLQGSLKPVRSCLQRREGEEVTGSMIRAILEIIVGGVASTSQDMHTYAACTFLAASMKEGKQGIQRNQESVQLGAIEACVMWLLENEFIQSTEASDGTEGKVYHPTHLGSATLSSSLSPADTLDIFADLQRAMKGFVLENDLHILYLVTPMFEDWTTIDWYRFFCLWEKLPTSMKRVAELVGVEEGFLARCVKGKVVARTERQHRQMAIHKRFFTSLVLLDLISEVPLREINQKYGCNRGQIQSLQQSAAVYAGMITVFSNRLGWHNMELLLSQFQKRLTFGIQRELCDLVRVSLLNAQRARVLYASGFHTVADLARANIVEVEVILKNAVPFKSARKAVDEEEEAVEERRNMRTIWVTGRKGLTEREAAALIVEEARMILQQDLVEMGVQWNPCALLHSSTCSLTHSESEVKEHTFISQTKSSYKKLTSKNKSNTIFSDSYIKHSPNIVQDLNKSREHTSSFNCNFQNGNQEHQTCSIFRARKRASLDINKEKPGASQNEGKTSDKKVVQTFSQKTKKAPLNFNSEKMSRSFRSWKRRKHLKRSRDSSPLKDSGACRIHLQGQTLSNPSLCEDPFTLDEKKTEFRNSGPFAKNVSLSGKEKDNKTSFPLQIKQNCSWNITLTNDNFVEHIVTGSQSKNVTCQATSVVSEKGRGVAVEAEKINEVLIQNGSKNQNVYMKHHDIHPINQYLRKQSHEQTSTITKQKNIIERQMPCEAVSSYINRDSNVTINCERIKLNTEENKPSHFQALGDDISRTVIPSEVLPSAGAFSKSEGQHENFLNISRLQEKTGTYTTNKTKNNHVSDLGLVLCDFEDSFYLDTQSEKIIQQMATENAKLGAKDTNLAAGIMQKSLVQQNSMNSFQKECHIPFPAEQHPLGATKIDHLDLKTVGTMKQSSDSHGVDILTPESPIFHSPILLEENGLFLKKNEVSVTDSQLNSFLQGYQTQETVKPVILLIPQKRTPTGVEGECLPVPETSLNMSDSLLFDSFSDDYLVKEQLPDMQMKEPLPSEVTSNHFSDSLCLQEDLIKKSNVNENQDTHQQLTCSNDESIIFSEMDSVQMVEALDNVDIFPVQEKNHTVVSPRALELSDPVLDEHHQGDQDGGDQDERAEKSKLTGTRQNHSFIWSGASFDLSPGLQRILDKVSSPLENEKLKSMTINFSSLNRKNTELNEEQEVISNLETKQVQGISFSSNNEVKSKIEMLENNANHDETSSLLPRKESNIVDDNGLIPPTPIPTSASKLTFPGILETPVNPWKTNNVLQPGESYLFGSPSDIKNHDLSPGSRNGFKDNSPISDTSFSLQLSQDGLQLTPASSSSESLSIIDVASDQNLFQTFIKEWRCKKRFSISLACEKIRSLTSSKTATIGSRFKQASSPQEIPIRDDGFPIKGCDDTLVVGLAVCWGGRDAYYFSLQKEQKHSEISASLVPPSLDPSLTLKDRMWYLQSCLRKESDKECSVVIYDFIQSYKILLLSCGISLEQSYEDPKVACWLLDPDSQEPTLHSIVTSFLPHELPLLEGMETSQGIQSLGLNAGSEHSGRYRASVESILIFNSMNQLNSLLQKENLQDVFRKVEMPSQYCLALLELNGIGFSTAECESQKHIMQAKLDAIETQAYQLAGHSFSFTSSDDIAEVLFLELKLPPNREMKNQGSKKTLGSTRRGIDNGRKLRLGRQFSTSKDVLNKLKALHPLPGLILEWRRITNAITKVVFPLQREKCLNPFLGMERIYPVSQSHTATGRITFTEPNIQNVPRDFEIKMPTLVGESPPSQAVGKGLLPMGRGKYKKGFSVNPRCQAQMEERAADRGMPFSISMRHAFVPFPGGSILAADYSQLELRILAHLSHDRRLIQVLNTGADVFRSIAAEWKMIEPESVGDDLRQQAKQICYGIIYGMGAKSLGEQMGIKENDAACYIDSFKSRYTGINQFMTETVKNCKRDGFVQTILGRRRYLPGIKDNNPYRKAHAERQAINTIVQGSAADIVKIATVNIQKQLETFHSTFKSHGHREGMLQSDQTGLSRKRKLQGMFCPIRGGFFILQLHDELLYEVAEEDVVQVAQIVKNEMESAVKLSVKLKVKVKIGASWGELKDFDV
SMILES	remaining activity
CC(=O)C(C)=O	99.8%
N[C@H]1C[C@@H]1c1ccc(-c2cccc(O)c2)cc1	104%
COc1ccc(C(=O)CC(=O)c2ccc(C(C)(C)C)cc2)cc1	98.8%
CCOC(=O)n1ccn(C)c1=S	91% and 90.9%
CCCCC#Cc1nc(NC)c2ncn([C@@H]3O[C@H](CO)[C@@H](O)[C@H]3O)c2n1	96.6%
C[C@@H](CN1CC(=O)NC(=O)C1)N1CC(=O)NC(=O)C1	93.3%
CC(NC(=O)[C@H](Cc1ccccc1)NC(=O)OCc1ccccc1)C(=O)CF (stereo partly drawn)	101%
CC1(C)O[C@@H]2C[C@H]3[C@@H]4CCC5=CC(=O)C=C[C@]5(C)[C@H]4[C@@H](O)C[C@]3(C)[C@]2(C(=O)CO)O1	101%

Series 2 — effect on: enzyme activity; action: inhibitor; tested at: 0.5 µM; reference: control
Structure (SMILES): CCCNC(=O)Nc1ccc(Oc2ncnc3cc(OC)c(OC)cc23)cc1Cl
target	remaining activity [%]
SGK2 (Homo sapiens, UniProt Q9HBY8)	97.1
JAK1 (Homo sapiens, UniProt P23458)	99.2
Cyclin-dependent kinase 2, with cyclin E (CDK2, Homo sapiens, UniProt P24941)	95.2
PAK6 (Homo sapiens, UniProt Q9NQU5)	106
SIK2 (Homo sapiens, UniProt Q9H0K1)	101
PRKCQ (Homo sapiens, UniProt Q04759)	102
RPS6KA3 (Homo sapiens, UniProt P51812)	94.9
MAP3K20 (Homo sapiens, UniProt Q9NYL2)	103

Series 3 — action: inhibitor
Structure (SMILES): Cc1nc(Nc2ncc(C(=O)Nc3c(C)cccc3Cl)s2)cc(N2CCN(CCO)CC2)n1
target	tested at	inhibition
BMPR2 (Homo sapiens, UniProt Q13873)	1 µM	< 50%
MKNK1 (Homo sapiens, UniProt Q9BUB5)	10 µM	< 50%
ULK3 (Homo sapiens, UniProt Q6PHR2)	10 µM	< 50%
MAPK11 (Homo sapiens, UniProt Q15759)	10 µM	95%
MST1R (Homo sapiens, UniProt Q04912)	10 µM	< 50%
CAMKK1 (Homo sapiens, UniProt Q8N5S9)	10 µM	< 50%
IGF1R (Homo sapiens, UniProt P08069)	10 µM	< 50%
MET (Homo sapiens, UniProt P08581)	10 µM	< 50%
DCLK2 (Homo sapiens, UniProt Q8N568)	10 µM	< 50%
Ribosomal protein S6 kinase alpha-1, kinase domain 2 (RPS6KA1, Homo sapiens, UniProt Q15418)	10 µM	< 50%

Series 4 — effect on: cell-free assay; technique: competition with immobilised ligand; tested at: 1 µM
SMILES: C[C@H](c1cccc(C#N)c1)n1cc(Cl)cc(C(N)=O)c1=N
target	remaining binding
Ribosomal protein S6 kinase alpha-6, N-terminal kinase domain (RPS6KA6, Homo sapiens, UniProt Q9UK32)	91%
CHEK2 (Homo sapiens, UniProt O96017)	100%
MAP3K2 (Homo sapiens, UniProt Q9Y2U5)	100%
Non-receptor tyrosine-protein kinase TYK2, JH1 (TYK2, Homo sapiens, UniProt P29597)	100%
SNRK (Homo sapiens, UniProt Q9NRH2)	100%
MAP3K9 (Homo sapiens, UniProt P80192)	95%
EGFR (Homo sapiens, UniProt P00533, L861Q)	100%
Tyrosine-protein kinase ABL1, phosphorylated (ABL1, Homo sapiens, UniProt P00519, H396P)	79%
CHUK (Homo sapiens, UniProt O15111)	100%
EPHA8 (Homo sapiens, UniProt P29322)	95%
PLK4 (Homo sapiens, UniProt O00444)	100%
FLT3 (Homo sapiens, UniProt P36888, D835V)	89%
PTK6 (Homo sapiens, UniProt Q13882)	95%
Ribosomal protein S6 kinase alpha-3, N-terminal kinase domain (RPS6KA3, Homo sapiens, UniProt P51812)	95%
PKN2 (Homo sapiens, UniProt Q16513)	100%
MYLK3 (Homo sapiens, UniProt Q32MK0)	94%
